Assay results collected from several papers.
Every numbered part comes from another study and shows a few of its results, in no order.
UniProt Q8IVW4, sequence (whole entry, looked up): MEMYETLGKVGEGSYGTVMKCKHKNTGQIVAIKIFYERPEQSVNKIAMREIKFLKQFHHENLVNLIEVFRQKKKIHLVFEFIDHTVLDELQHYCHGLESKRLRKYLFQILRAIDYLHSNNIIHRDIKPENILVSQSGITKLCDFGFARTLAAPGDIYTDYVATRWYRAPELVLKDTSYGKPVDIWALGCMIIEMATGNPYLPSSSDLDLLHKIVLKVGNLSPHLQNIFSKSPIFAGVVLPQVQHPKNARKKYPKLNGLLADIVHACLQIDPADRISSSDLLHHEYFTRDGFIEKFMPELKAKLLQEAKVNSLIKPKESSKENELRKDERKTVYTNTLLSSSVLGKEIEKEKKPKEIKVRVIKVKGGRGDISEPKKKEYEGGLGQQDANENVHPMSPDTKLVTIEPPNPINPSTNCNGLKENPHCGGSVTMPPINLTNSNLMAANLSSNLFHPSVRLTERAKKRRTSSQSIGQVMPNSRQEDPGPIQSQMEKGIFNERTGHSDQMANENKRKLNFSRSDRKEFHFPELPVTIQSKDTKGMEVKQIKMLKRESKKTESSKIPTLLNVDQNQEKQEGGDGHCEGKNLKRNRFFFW
UniProt Q9Y6M4, sequence (whole entry, looked up): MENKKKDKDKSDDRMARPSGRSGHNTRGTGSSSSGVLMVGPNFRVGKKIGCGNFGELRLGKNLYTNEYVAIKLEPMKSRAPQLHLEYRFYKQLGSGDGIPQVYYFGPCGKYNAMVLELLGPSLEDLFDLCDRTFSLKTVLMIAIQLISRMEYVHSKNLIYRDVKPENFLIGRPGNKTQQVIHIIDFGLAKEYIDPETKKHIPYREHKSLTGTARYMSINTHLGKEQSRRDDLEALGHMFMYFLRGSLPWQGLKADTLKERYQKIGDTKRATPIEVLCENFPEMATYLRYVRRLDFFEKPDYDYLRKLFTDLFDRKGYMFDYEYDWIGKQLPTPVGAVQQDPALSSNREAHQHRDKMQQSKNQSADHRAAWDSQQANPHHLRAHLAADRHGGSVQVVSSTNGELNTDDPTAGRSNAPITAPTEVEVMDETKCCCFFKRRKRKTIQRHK
UniProt P41743, sequence (whole entry, looked up): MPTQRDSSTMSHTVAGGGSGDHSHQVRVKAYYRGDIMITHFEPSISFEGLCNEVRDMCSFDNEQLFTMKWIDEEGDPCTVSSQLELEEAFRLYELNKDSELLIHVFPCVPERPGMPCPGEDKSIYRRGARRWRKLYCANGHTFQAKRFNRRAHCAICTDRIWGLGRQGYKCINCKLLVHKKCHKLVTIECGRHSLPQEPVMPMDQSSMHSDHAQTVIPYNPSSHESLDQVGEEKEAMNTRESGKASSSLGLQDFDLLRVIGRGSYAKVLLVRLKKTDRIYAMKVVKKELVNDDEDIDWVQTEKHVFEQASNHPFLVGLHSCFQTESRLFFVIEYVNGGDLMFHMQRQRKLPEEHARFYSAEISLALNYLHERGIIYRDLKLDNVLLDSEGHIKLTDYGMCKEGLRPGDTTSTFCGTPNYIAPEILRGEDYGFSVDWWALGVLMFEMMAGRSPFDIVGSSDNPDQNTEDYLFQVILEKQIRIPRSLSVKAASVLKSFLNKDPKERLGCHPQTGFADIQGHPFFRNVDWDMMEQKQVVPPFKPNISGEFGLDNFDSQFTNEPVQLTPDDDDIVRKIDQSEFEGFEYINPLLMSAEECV
UniProt Q9BRS2, sequence (whole entry, looked up): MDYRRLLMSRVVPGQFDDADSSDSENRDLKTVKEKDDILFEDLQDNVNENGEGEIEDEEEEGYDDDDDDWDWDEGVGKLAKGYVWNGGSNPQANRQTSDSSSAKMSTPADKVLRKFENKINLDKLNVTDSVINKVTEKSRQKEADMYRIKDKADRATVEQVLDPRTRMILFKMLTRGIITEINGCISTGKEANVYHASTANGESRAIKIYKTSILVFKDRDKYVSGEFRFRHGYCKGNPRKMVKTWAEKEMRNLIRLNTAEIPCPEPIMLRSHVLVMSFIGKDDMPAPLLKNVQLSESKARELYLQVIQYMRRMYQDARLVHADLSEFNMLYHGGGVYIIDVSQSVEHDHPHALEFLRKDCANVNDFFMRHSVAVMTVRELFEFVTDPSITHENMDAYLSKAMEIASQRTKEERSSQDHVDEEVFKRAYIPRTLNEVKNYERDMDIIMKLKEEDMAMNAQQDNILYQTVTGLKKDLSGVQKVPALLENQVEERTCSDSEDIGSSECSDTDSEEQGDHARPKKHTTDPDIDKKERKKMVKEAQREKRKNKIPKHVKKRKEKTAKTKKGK
UniProt P06213, sequence (whole entry, looked up): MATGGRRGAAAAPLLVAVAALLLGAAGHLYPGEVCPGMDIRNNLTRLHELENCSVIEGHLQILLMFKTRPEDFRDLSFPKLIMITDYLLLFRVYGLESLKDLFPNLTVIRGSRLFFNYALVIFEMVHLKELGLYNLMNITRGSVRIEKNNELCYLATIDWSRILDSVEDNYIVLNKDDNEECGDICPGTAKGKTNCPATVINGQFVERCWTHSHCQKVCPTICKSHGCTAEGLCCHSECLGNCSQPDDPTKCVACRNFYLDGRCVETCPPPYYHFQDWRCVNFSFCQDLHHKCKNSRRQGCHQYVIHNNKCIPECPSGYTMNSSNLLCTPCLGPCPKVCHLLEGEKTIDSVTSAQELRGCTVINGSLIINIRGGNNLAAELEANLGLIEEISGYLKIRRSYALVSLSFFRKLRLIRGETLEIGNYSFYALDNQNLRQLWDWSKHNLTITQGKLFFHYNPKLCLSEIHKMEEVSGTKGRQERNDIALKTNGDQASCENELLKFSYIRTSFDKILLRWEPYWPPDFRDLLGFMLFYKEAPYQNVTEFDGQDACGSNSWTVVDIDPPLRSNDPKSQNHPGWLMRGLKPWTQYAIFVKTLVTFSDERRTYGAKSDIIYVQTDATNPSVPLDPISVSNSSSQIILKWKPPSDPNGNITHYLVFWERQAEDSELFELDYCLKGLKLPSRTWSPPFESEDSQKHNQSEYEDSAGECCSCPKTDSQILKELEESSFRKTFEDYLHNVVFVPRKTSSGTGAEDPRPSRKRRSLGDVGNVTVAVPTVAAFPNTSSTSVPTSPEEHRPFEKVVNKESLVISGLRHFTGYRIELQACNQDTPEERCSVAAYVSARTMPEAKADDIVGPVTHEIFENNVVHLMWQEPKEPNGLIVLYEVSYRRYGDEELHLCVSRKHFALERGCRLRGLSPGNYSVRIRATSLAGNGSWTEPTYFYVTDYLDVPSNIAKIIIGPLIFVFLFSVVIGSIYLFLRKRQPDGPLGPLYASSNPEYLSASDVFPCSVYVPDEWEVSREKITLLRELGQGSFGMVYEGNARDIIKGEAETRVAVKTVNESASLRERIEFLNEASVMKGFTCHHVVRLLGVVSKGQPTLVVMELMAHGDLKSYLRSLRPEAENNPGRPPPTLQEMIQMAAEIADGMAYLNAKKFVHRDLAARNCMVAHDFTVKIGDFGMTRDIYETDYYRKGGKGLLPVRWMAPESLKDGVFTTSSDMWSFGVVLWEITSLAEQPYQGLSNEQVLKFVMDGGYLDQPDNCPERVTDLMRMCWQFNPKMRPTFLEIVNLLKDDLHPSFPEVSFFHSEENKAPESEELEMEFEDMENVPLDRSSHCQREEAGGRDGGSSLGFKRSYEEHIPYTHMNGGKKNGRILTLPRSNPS

Block 1
Method: PRP chromatography estimate
Matrix: 1,9-decadiene/PBS
pH: 7.4
Structure (SMILES) | logD
CC(C)C[C@@H]1NC(=O)[C@H](C)NC(=O)[C@H](CC(C)C)NC(=O)[C@@H](CC(C)C)NC(=O)[C@H](CC(C)C)NC(=O)[C@H](C(C)C)NC(=O)[C@H](CCC(=O)N2CCCC2)NC1=O | -0.737
CC(C)C[C@@H]1NC(=O)[C@H](Cc2cscn2)NC(=O)[C@@H](CC(C)C)NC(=O)[C@H](C(C)C)NC(=O)[C@H](CC(C)C)NC(=O)[C@@H](CC(C)C)NC(=O)[C@H](CC(C)C)NC1=O | 1.19
CC(C)C[C@@H]1NC(=O)[C@H](CC(C)C)NC(=O)[C@H](CC(C)C)NC(=O)[C@H](CC(C)C)NC(=O)[C@@H](CCC(=O)N2CCCC2)NC(=O)[C@H](Cc2cscn2)NC(=O)[C@H](C)NC1=O | -1.53
CC(C)C[C@@H]1NC(=O)[C@H](C)NC(=O)[C@H](C(C)C)NC(=O)[C@H](C)NC(=O)[C@H](C)NC(=O)[C@H](CC(C)C)NC(=O)[C@H](CC(C)C)NC1=O | -2.57
CCC[C@H]1NC(=O)CSC[C@@H](C(=O)OCC)N(C)C(=O)[C@H](CC(C)C)NC(=O)[C@H](C)N(C)C(=O)[C@@H](CC(C)C)NC(=O)[C@H](C)N(C)C(=O)[C@@H]2CCCN2C(=O)[C@H](CC(C)C)NC(=O)CN(C)C1=O | -0.0851
CC(C)C[C@@H]1NC(=O)[C@H](CC(C)C)NC(=O)[C@@H](C(C)C)NC(=O)[C@H](C)NC(=O)[C@@H](Cc2cscn2)NC(=O)[C@H](C)NC(=O)[C@H](CCC(=O)N2CCCC2)NC1=O | -3.51
CC(C)C[C@@H]1NC(=O)[C@H](C(C)C)NC(=O)[C@@H](CC(C)C)NC(=O)[C@@H](CC(C)C)NC(=O)[C@H](C)NC(=O)[C@H](CC(C)C)NC(=O)[C@@H](CC(C)C)NC1=O | 1.31
CC(C)C[C@@H]1NC(=O)[C@H](CCC(=O)N2CCCC2)NC(=O)[C@@H](C(C)C)NC(=O)[C@H](C(C)C)NC(=O)[C@H](CC(C)C)NC(=O)[C@@H](CC(C)C)NC(=O)[C@H](CC(C)C)NC1=O | 0.311
CC(C)C[C@@H]1NC(=O)[C@H](CC(C)C)NC(=O)[C@H](CC(C)C)NC(=O)[C@H](C(C)C)NC(=O)[C@@H](Cc2cscn2)NC(=O)[C@@H](CC(C)C)NC(=O)[C@H](C)NC1=O | -0.208

Block 2
Target: Calcium/calmodulin-dependent protein kinase type II subunit alpha (CAMK2A, Homo sapiens, UniProt Q9UQM7)
UniProt Q9UQM7, sequence (whole entry, looked up): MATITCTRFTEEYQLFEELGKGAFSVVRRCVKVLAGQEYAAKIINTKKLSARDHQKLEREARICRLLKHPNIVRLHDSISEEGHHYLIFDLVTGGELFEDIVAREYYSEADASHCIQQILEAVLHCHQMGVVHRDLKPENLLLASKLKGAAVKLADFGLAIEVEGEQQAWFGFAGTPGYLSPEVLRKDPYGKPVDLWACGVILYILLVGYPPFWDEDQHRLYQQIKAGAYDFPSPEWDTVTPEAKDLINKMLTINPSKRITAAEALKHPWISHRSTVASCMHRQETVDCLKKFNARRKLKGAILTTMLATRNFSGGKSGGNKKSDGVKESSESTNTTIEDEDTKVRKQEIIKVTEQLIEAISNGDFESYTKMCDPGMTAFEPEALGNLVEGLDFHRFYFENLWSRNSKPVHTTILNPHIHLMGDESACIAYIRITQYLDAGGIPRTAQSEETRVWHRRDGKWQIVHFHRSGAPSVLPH
Observed: enzyme activity
Mode: inhibitor
Tested at: 10 µM
Compound | inhibition
Nc1nc2c([nH]c(=O)n2[C@@H]2O[C@H](CO)[C@@H](O)[C@H]2O)c(=O)[nH]1 | -2%
CC(=O)C1=C(O)C=C2Oc3c(C(C)=O)c(O)c(C)c(O)c3[C@@]2(C)C1=O | -2%
CCCCCCCCCC(=O)O | -10%
CCOc1ccc2nc(SCCN3CCOCC3)[nH]c2c1 | -9%
COc1ccc(-c2coc3cc(O[C@@H]4O[C@H](CO)[C@@H](O)[C@H](O)[C@H]4O)ccc3c2=O)cc1 | -4%
Nc1nc2c(c(=O)[nH]1)N=C(CNc1ccc(C(=O)N[C@@H](CCC(=O)O)C(=O)O)cc1)CN2 | -15%
C=CCS[S+]([O-])CC=C (centres unmarked) | -42%
O=C(O)c1cc(O)c2c(c1)[C@H]([C@H]1c3cc(C(=O)O)cc(O)c3C(=O)c3c(O[C@@H]4O[C@H](CO)[C@@H](O)[C@H](O)[C@H]4O)cccc31)c1cccc(O[C@@H]3O[C@H](CO)[C@@H](O)[C@H](O)[C@H]3O)c1C2=O | 5%
CCOC(=O)c1c(N)sc2c1CCN(Cc1ccccc1)C2 | -10%
COC(=O)C1=CO[C@@H](O[C@@H]2O[C@H](CO)[C@@H](O)[C@H](O)[C@H]2O)[C@@H]2C(CO)=CC[C@H]12 | -11%
O=c1c(-c2ccc(O)cc2)coc2c([C@@H]3O[C@H](CO[C@@H]4OC[C@@H](O)[C@H](O)[C@H]4O)[C@@H](O)[C@H](O)[C@H]3O)c(O)ccc12 | 25%
OCc1cccc(O)c1 | 0%
C/C=C/c1ccc(O)c(OC)c1 | -18%

Block 3
Target: Diamine acetyltransferase 1 (Homo sapiens, UniProt P21673)
Mode: inhibitor
Tested at: 10 µM
Reference: control
Construct (P21673 1-171): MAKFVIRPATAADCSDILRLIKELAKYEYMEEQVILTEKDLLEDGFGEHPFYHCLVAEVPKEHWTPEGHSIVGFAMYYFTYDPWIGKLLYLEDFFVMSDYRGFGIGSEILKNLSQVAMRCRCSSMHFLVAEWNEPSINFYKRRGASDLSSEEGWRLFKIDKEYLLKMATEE
SMILES | remaining activity
O=c1ccc2cc3ccoc3cc2o1 | 78.9%
COc1ccc(/C=C/C(=O)O)cc1 | 82.3%
C[C@H]1[C@H](C)CC[C@]2(C(=O)O)CC[C@]3(C)C(=CC[C@@H]4[C@@]5(C)CC[C@H](O)C(C)(C)[C@@H]5CC[C@]43C)[C@H]12 | 99.5%
CC(=O)c1ccc(C)cc1 | 89.8%
COC(=O)[C@]1(O)C[C@@H](O)[C@@H](O)[C@H](OC(=O)C=Cc2ccc(O)c(O)c2)C1 | 86.7%
C[C@H](CCC(=O)O)[C@H]1CC(=O)[C@@]2(C)C3=C(C(=O)C[C@]12C)[C@@]1(C)CCC(=O)C(C)(C)[C@@H]1C[C@@H]3O | 104%
C[C@H](CC(=O)C[C@@H](C)[C@H]1C[C@H](O)[C@@]2(C)C3=C(C(=O)C[C@]12C)[C@@]1(C)CC[C@H](O)C(C)(C)[C@@H]1C[C@@H]3O)C(=O)O | 106%
OCc1cccnc1 | 92.5%

Block 4
Structure (SMILES): CN(C(=O)c1ccccc1)c1cc(N(C)c2ccc3c(c2)CCc2ccc(C(=O)NCCN4CCOCC4)cc2C3=O)ccc1F
Tested at: 1 µM
target | observed | method | remaining binding [%]
Dual specificity testis-specific protein kinase 1 (TESK1, Homo sapiens, UniProt Q15569) | cell-free assay | competition with immobilised ligand | 100
Serine/threonine-protein kinase tousled-like 2 (TLK2, Homo sapiens, UniProt Q86UE8) | cell-free assay | competition with immobilised ligand | 87
Mast/stem cell growth factor receptor Kit (KIT, Homo sapiens, UniProt P10721, V559D) | cell-free assay | competition with immobilised ligand | 100
Insulin receptor (INSR, Homo sapiens, UniProt P06213) | cell-free assay | competition with immobilised ligand | 84
Phosphatidylinositol 5-phosphate 4-kinase type-2 gamma (PIP4K2C, Homo sapiens, UniProt Q8TBX8) | cell-free assay | competition with immobilised ligand | 62
Calcium/calmodulin-dependent protein kinase type II subunit gamma (CAMK2G, Homo sapiens, UniProt Q13555) | cell-free assay | competition with immobilised ligand | 88
eIF-2-alpha kinase GCN2, C-terminal kinase domain (EIF2AK4, Homo sapiens, UniProt Q9P2K8, S808G) | cell-free assay | competition with immobilised ligand | 100
Platelet-derived growth factor receptor alpha (PDGFRA, Homo sapiens, UniProt P16234) | cell-free assay | competition with immobilised ligand | 86
Tyrosine-protein kinase ZAP-70 (ZAP70, Homo sapiens, UniProt P43403) | cell-free assay | competition with immobilised ligand | 81
Serine/threonine-protein kinase MRCK gamma (CDC42BPG, Homo sapiens, UniProt Q6DT37) | – | competition binding | 98
Transient receptor potential cation channel subfamily M member 6 (TRPM6, Homo sapiens, UniProt Q9BX84) | cell-free assay | competition with immobilised ligand | 75
Serine/threonine-protein kinase RIO1 (RIOK1, Homo sapiens, UniProt Q9BRS2) | cell-free assay | competition with immobilised ligand | 74
Protein kinase C iota type (PRKCI, Homo sapiens, UniProt P41743) | cell-free assay | competition with immobilised ligand | 100
Myosin light chain kinase (MYLK3, Homo sapiens, UniProt Q32MK0) | cell-free assay | competition with immobilised ligand | 100
TGF-beta receptor type-1 (TGFBR1, Homo sapiens, UniProt P36897) | cell-free assay | competition with immobilised ligand | 85
Serine/threonine-protein kinase 17A (STK17A, Homo sapiens, UniProt Q9UEE5) | cell-free assay | competition with immobilised ligand | 100
Casein kinase I isoform gamma-3 (CSNK1G3, Homo sapiens, UniProt Q9Y6M4) | cell-free assay | competition with immobilised ligand | 88
Serine/threonine-protein kinase WNK1 (WNK1, Homo sapiens, UniProt Q9H4A3) | cell-free assay | competition with immobilised ligand | 100
Cyclin-dependent kinase-like 3 (CDKL3, Homo sapiens, UniProt Q8IVW4) | cell-free assay | competition with immobilised ligand | 96
Ribosomal protein S6 kinase alpha-6, N-terminal kinase domain (RPS6KA6, Homo sapiens, UniProt Q9UK32) | cell-free assay | competition with immobilised ligand | 83
Receptor-type tyrosine-protein kinase FLT3 (FLT3, Homo sapiens, UniProt P36888, F691L/ITD) | cell-free assay | competition with immobilised ligand | 98
Phosphatidylinositol 3-kinase C2 domain-containing subunit gamma (PIK3C2G, Homo sapiens, UniProt O75747) | cell-free assay | competition with immobilised ligand | 88
Serine/threonine-protein kinase DCLK1 (DCLK1, Homo sapiens, UniProt O15075) | cell-free assay | competition with immobilised ligand | 96

For quick reference, copied from above (block 4):
target | observed | method | remaining binding [%]
Myosin light chain kinase (MYLK3, Homo sapiens, UniProt Q32MK0) | cell-free assay | competition with immobilised ligand | 100
Serine/threonine-protein kinase WNK1 (WNK1, Homo sapiens, UniProt Q9H4A3) | cell-free assay | competition with immobilised ligand | 100
Cyclin-dependent kinase-like 3 (CDKL3, Homo sapiens, UniProt Q8IVW4) | cell-free assay | competition with immobilised ligand | 96
Transient receptor potential cation channel subfamily M member 6 (TRPM6, Homo sapiens, UniProt Q9BX84) | cell-free assay | competition with immobilised ligand | 75
Phosphatidylinositol 3-kinase C2 domain-containing subunit gamma (PIK3C2G, Homo sapiens, UniProt O75747) | cell-free assay | competition with immobilised ligand | 88
Dual specificity testis-specific protein kinase 1 (TESK1, Homo sapiens, UniProt Q15569) | cell-free assay | competition with immobilised ligand | 100
Ribosomal protein S6 kinase alpha-6, N-terminal kinase domain (RPS6KA6, Homo sapiens, UniProt Q9UK32) | cell-free assay | competition with immobilised ligand | 83
Calcium/calmodulin-dependent protein kinase type II subunit gamma (CAMK2G, Homo sapiens, UniProt Q13555) | cell-free assay | competition with immobilised ligand | 88
